Experimental data gathered from unrelated publications.
Every numbered part comes from another study and shows a few of its results, in no order. Substitutions count along the parent as printed.

Sample 1 — target: CCND1, cyclin fold, Cln2 fusion (human); technique: yeast growth competition, sequencing; matrix: yeast; notes: weak parent motif; baseline: not given; direction: higher = stronger binding; measurement: normalised enrichment score
Starting sequence: CDKN1C docking peptide (human); TSACRSLFGPVDH
TSACRSLFGPVDA [H13A]: 0.605
TSACRSLFGPADH [V11A]: 1.23
TSACASLFGPVDH [R5A]: -0.0976

Sample 2 — technique: DHFR PCA, deep sequencing; matrix: yeast; together with: (+)-ABA 58 µM; baseline: wild-type fitted maximum; direction: higher = stronger binding; measurement: relative binding score
Target: ABI1, truncated, D143A, DHFR fusion (Arabidopsis thaliana)
Notes: methotrexate growth selection, single substitutions
Starting sequence: PYL1, truncated, DHFR fusion (Arabidopsis thaliana); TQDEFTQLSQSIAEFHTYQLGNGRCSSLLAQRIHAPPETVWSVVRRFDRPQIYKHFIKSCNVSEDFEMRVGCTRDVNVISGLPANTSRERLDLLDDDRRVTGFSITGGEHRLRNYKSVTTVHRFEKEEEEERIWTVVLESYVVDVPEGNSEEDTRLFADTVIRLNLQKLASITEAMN
M176H: 79.7%
A35D: 9.5%
L82M: 72.6%
S26F: 74.9%
P146V: 37.4%
Q31M: 57.5%
L166T: -0.872%

Sample 3 — technique: protein binding microarray; form: double-stranded DNA, one strand shown; matrix: in vitro; tested at: not given; baseline: not given; direction: higher = stronger binding; measurement: E-score
Target: Histone acetyltransferase KAT6A, both winged helices, GST fusion (KAT6A, Homo sapiens, UniProt Q92794, residues 1-181)
Notes: 8-mer, flanks averaged, mean of 2 arrays, mostly near background
Construct (chain): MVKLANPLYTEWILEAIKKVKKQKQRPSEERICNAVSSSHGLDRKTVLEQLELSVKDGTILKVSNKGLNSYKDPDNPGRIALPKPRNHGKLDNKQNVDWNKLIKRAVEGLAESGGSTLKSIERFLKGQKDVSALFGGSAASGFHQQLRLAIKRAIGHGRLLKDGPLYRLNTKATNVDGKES
TCATGGCA: -0.018
ACTTTAGA: -0.0591
ATATAAGG: -0.127
CTGCTAGC: -0.104
AGACTCTA: -0.0724

Single results of other studies
PhoQ, residues 284 288 289 292 302 303 GLASVI
fold induction (PhoP, residues 12 14 15 18 19 NFCKL (Escherichia coli, UniProt P23836); Sort-seq, item: YFP reporter; E. coli; PhoQ-PhoP variant library, together with: 10 µM Mg2+; baseline: high Mg2+ state, higher = stronger signaling): 12.6
